Assay results pooled from the literature.
Lines come from different studies, so protocols differ. ± gives the spread as reported. Converted amounts (≈) assume the structure as drawn.

SMILES | test | system | conditions | how to read | endpoint | value
Clc1ccc(-c2ccccc2)cc1 | – | female Sprague-Dawley rat, serum | inhalation, 23 µg/rat, 0 h | – | free thyroxine | 31 ± 14 pmol/L
CC[C@H](C)[C@H](NC(=O)[C@@H](N)CCCNC(=N)N)C(=O)N[C@H](C(=O)N1CCC[C@H]1C(=O)N[C@@H](C)C(N)=O)C(C)C | – | healthy volunteers, both sexes, plasma | intravenous infusion, 0.15 mg/kg, single ascending dose | – | Tmax | 4 min
CNC(=O)c1ccc(-c2cnn3ccc(C(=O)N(C)c4ccc(Cl)c(C(=O)OC)c4)cc23)cc1 | – | rat, Wistar or Sprague Dawley, male, plasma, jugular vein (systemic) | oral, 100 mg/kg | – | Cmax | 5 nM
CN[C@@](C)(C[18F])C(=O)O | – | SCID mouse DU-145 xenograft, spleen | 60 min, post injection | – | tissue uptake | 9.3 ± 1.9 %ID/g
CCCCCOc1ccc(-c2cc(-c3ccc(C(=O)N[C@H]4C[C@@H](O)[C@@H](O)NC(=O)[C@@H]5[C@@H](O)[C@@H](C)CN5C(=O)[C@H]([C@H](O)CC(N)=O)NC(=O)[C@H]([C@H](O)[C@@H](O)c5ccc(O)c(OS(=O)(=O)O)c5)NC(=O)[C@@H]5C[C@@H](O)CN5C(=O)[C@H]([C@@H](C)O)NC4=O)cc3)no2)cc1 | – | human, plasma | intravenous, 7 mg/kg/day | – | AUC(0-24) | 163000 ng·h/mL
N.O=C(O)C(F)(OC(F)(F)C(F)(F)C(F)(F)F)C(F)(F)F (stereo not shown) | LC-MS | C57BL/6J mice, male, plasma | oral, 2 mg/L in drinking water, 12 weeks | – | plasma concentration | 100 ± 40 ng/mL
CC(=O)N[C@H](CCCCNC(=O)C(C)F)C(=O)N[C@@H](CS)C(=O)N[C@@H](CS)C(=O)N[C@@H](CCC(=O)O)C(=O)N[C@@H](Cc1c[nH]cn1)C(=O)N[C@H](Cc1ccccc1)C(=O)N[C@@H](CCCNC(=N)N)C(=O)N[C@@H](Cc1c[nH]c2ccccc12)C(=O)N[C@@H](CS)C(=O)N[C@@H](CCCNC(=N)N)C(=O)N1CCC[C@H]1C(=O)N[C@H](C(N)=O)C(C)C (stereo partly shown) [fluorine-18 labelled] | – | C57BL/6 mice, male, B16-F10 tumour, brain | intravenous, 1 h | – | tissue uptake | 0.11 ± 0.04 %ID/g
CC(C)C[C@H](NC(=O)[C@H](CCC(=O)O)NC(=O)[C@H](CCC(=O)O)NC(=O)[C@H](CC(=O)O)NC(=O)[C@H](CCC(=O)O)NC(=O)[C@H](CCC(=O)O)NC(=O)[C@H](CCC(=O)O)NC(=O)[C@@H](N)CC(=O)O)C(=O)O | – | rat, plasma | intravenous, 11.0 mg/kg single dose, 15 min | – | plasma concentration | 10300 ng/mL
CSCC[C@@H]1NC(=O)[C@H](CC(=O)O)NC(=O)CNC(=O)[C@H](CCCNC(=N)N)NC(=O)[C@H](C)NC(=O)[C@H](CCC(=O)O)NC(=O)[C@H](CCCNC(=N)N)NC(=O)[C@@H]2CSSC[C@@H]3NC(=O)[C@H](CO)NC(=O)[C@H]([C@@H](C)O)NC(=O)[C@@H]4CCCN4C(=O)[C@H](C)NC(=O)[C@H](Cc4c[nH]c5ccccc45)NC(=O)[C@H](CC(=O)O)NC(=O)CNC(=O)[C@H](CCCNC(=N)N)NC(=O)CNC(=O)[C@H](CCC(N)=O)NC(=O)[C@@H]4CCCN4C(=O)[C@@H](NC(=O)CNC(=O)C(C)F)CSSC[C@H](NC(=O)CNC(=O)[C@H](C)NC(=O)[C@H](CC(C)C)NC(=O)[C@H](CSSC[C@@H](C(=O)NCC(N)=O)NC(=O)[C@H]([C@@H](C)O)NC(=O)[C@H](CCCNC(=N)N)NC(=O)[C@@H]4CCCN4C1=O)NC(=O)[C@H](CC(=O)O)NC(=O)[C@H](CO)NC(=O)[C@H](CC(=O)O)NC(=O)[C@H](CCC(N)=O)NC(=O)[C@H](CO)NC3=O)C(=O)N[C@@H](C(C)C)C(=O)N2 (stereo partly shown) [fluorine-18 labelled] | – | nude mice U-87 MG xenograft, blood | intravenous, 0.5 h | – | tissue uptake | 0.64 ± 0.07 %ID/g
CSc1ccc(Nc2ccc3c(c2)C(c2ccccc2F)=NC(C)C(=O)N3)cc1 (stereo not shown) | shake flask | PBS | 24 h, pH 7.4 | – | solubility | 3.69 µM (≈ 1.5 µg/mL)
COC(=O)c1ccnc(-c2cc(C(=O)OC)ccn2)c1.O.[C-]#[O+].[C-]#[O+].[C-]#[O+].[Re+] | RP-HPLC C18 column, refers to: free diimine ligand | MeCN:water 40:60, 0.1% TFA | isocratic elution | – | capacity factor | 2.4
Cc1cnc(C(=O)N[C@H]2CCCCC/C=C\[C@@H]3C[C@@]3(C(=O)NS(=O)(=O)C3CC3)NC(=O)[C@@H]3C[C@@H](Oc4nc5ccccc5c5ccccc45)CN3C2=O)cn1 | – | healthy human volunteers, plasma | oral, dose not given, alone, escitalopram interaction study | – | AUC(0-24) | 2700 ng·h/mL
O[C@H]1CCCN[C@@H]1CCCn1cnc2c(Cl)c(Cl)ccc21 | – | healthy volunteers, urine | oral, 600 mg capsule single, geometric mean | – | renal clearance (0-72 h) | 276 mL/min
CC(C)C(=O)OC[C@H]1O[C@@H](n2ccc(NO)nc2=O)[C@H](O)[C@@H]1O | – | rat blood dialysate | 5 ng/mL, 4 weeks, -20 °C, long-term storage, added: NHC 25 ng/mL | – | remaining compound | 107.2 ± 0.74%
[123I]c1cncc(OC[C@@H]2CCN2)c1 | SPECT | human, low plasma nicotine, cerebellum | intravenous, dose not given | baseline: plasma | tissue/plasma ratio | 19.6
Cc1c(P(=S)(c2ccccc2)c2ccccc2)n2ccccc2[n+]1C/C=C/c1ccccc1 | – | mouse, plasma | intraperitoneal, 10 mg/kg, 12 h | – | plasma concentration | 58 ng/mL
CCCCCCCCCCCCCCCC[N+](C)(C)CCCCCCCCCCCCCCCC | in vitro-in vivo extrapolation | human | – | – | hepatic clearance | 0.328 mL/h/g liver
Nc1ccn([C@@H]2O[C@H](CO)[C@@H](O)C2(F)F)c(=O)n1 | – | chick embryo day 7, chorioallantoic membrane | topical, 5 d | – | LD50 | 587 µM
O=C1Nc2cc3c(OS(=O)(=O)O)cccc3c3c4c(cc1c23)OCO4 | – | Wistar rat, male, urine | subcutaneous, 2 mg of aristolochic acid I, 24 h collection | – | urine concentration | 0.15 µM
C[N+](C)(C)[C@@H](Cc1c[nH]c(=S)[nH]1)C(=O)[O-] | – | rat treated with 1,25-dihydroxyvitamin D3, muscle | intravenous | baseline: untreated control rats | decrease in tissue partition coefficient | 47.3%
COc1ccc(C[C@@H]2NC(=O)[C@H]([C@@H](C)O)NC(=O)[C@@H]3[C@@H]4CCN3C(=O)[C@@H]3Cc5cn(c6ccc(F)cc56)CCCCCCN(Cc5ccc(cc5)CCNC(=O)[C@]5(C)CCCN5C2=O)C(=O)CCC(=O)N[C@@H](C)C(=O)N[C@H](CNC(=O)CCCCC[N+](C)(C)C)C(=O)N[C@@H](Cc2cccc(c2)CNC(=O)CO4)C(=O)N3)cc1 | – | fasted healthy humans, plasma | oral, 300 mg single dose, with 1800 mg Labrasol, geometric mean | – | AUC(0-t) | 2 µM·h
CCCCCOc1ccc(-c2cc(-c3ccc(C(=O)N[C@H]4C[C@@H](O)[C@@H](O)NC(=O)[C@@H]5[C@@H](O)[C@@H](C)CN5C(=O)[C@H]([C@H](O)CC(N)=O)NC(=O)[C@H]([C@H](O)[C@@H](O)c5ccc(O)c(OS(=O)(=O)O)c5)NC(=O)[C@@H]5C[C@@H](O)CN5C(=O)[C@H]([C@@H](C)O)NC4=O)cc3)no2)cc1 | – | preterm neonates below 1000 g, plasma | intravenous, 15 mg/kg/day, repeated dosing, mean | – | clearance | 0.622 mL/min/kg

For quick reference, copied from above:
SMILES | test | system | conditions | how to read | endpoint | value
C[N+](C)(C)[C@@H](Cc1c[nH]c(=S)[nH]1)C(=O)[O-] | – | rat treated with 1,25-dihydroxyvitamin D3, muscle | intravenous | baseline: untreated control rats | decrease in tissue partition coefficient | 47.3%
COc1ccc(C[C@@H]2NC(=O)[C@H]([C@@H](C)O)NC(=O)[C@@H]3[C@@H]4CCN3C(=O)[C@@H]3Cc5cn(c6ccc(F)cc56)CCCCCCN(Cc5ccc(cc5)CCNC(=O)[C@]5(C)CCCN5C2=O)C(=O)CCC(=O)N[C@@H](C)C(=O)N[C@H](CNC(=O)CCCCC[N+](C)(C)C)C(=O)N[C@@H](Cc2cccc(c2)CNC(=O)CO4)C(=O)N3)cc1 | – | fasted healthy humans, plasma | oral, 300 mg single dose, with 1800 mg Labrasol, geometric mean | – | AUC(0-t) | 2 µM·h
